Assay results collected from several papers.
± gives the spread as reported.

COC1CN([C@H]2CC[C@H]([C@@]3(C)Oc4c(Cl)cc(C(=O)NCc5c(SC)cc(C)[nH]c5=O)c(C)c4O3)CC2)C1
half-life (female CB17 SCID mice, KARPAS-422 xenograft, plasma; 25 mg/kg, day 12): 100 min

O=C1C2CC3CC1CC(C(=O)N1CCN(c4ccc([N+](=O)[O-])c5ncccc45)CC1)(C3)C2
half-life (ICR mice male, plasma; oral, 5 mg/kg): 82.2 min

Nc1nonc1-c1nnc2c(n1)-c1ccccc1C2=O
half-life (ICR mice, plasma; intraperitoneal, 30 mg/kg): 50.4 ± 0.6 min

C=C(NC(=O)c1csc(-c2nc3c(cc2O)-c2nc(cs2)C(=O)NC(C(C)O)C(=O)NC(=C(C)OC)c2nc(cs2)C(=O)NC2c4nc(cs4)C(=O)NC(COC(=O)c4c5c6c(cccc6n4O)COC(=O)C(OC4CC(C)(O)C(N(C)C)C(C)O4)C2OC5)c2nc-3cs2)n1)C(N)=O (centres unmarked)
half-life (ICR mice, Streptococcus pneumoniae ATCC 49169 infected, immunocompromised, blood; intravenous, 32 mg/kg/day once daily): 355 min

O=C(NCCN1C(=O)CCC1=O)[O][Pt]12([O]C(=O)NCCN3C(=O)CCC3=O)([NH][C@@H]3CCCC[C@H]3[NH]1)[O]C(=O)C(=O)[O]2
half-life (BALB/c mice, serum; intravenous, equimolar to 9 mg/kg oxaliplatin): 1540 min

COc1cccc2c(N3CCC(CCP(=O)(O)O)CC3)ncnc12
half-life (C57BL/6 mice, female, cerebrospinal fluid; subcutaneous, 50 mg/kg): 300 min

O=C(NCCN1C(=O)C=CC1=O)[O][Pt-2]12([O]C(=O)NCCN3C(=O)C=CC3=O)([NH2+][C@@H]3CCCC[C@H]3[NH2+]1)[O]C(=O)C(=O)[O]2
half-life (BALB/c mice, serum; intravenous, equimolar to 9 mg/kg oxaliplatin): 3340 min

CC[C@H](C)[C@H](NC(=O)[C@H](Cc1ccccc1)NC(=O)[C@H](CCC(=O)O)NC(=O)[C@H](CCCCN)NC(=O)[C@H](C)NC(=O)[C@H](C)NC(=O)[C@H](CCC(N)=O)NC(=O)CNC(=O)[C@H](CCC(=O)O)NC(=O)[C@H](CC(C)C)NC(=O)[C@H](Cc1ccc(O)cc1)NC(=O)[C@H](CO)NC(=O)[C@H](CO)NC(=O)[C@@H](NC(=O)[C@H](CC(=O)O)NC(=O)[C@H](CO)NC(=O)[C@@H](NC(=O)[C@H](Cc1ccccc1)NC(=O)[C@@H](NC(=O)CNC(=O)[C@H](CCC(=O)O)NC(=O)[C@H](C)NC(=O)[C@@H](N)Cc1c[nH]cn1)[C@@H](C)O)[C@@H](C)O)C(C)C)C(=O)N[C@@H](C)C(=O)N[C@@H](Cc1c[nH]c2ccccc12)C(=O)N[C@@H](CC(C)C)C(=O)N[C@H](C(=O)N[C@@H](CCCNC(=N)N)C(=O)NCC(=O)N[C@@H](CCCNC(=N)N)C(=O)NCC(=O)O)C(C)C
half-life (male ICR mice, plasma; intravenous, 1 mg/kg): 4.8 min

Repeated from above:
O=C(NCCN1C(=O)C=CC1=O)[O][Pt-2]12([O]C(=O)NCCN3C(=O)C=CC3=O)([NH2+][C@@H]3CCCC[C@H]3[NH2+]1)[O]C(=O)C(=O)[O]2
half-life (BALB/c mice, serum; intravenous, equimolar to 9 mg/kg oxaliplatin): 3340 min
